Assay results pooled from the literature.
Lines come from different studies, so protocols differ. ± gives the spread as reported.

Molecule	test system	conditions	how to read	endpoint	result
C=C(C)[C@@H]1CC[C@]2(NCCN3CCS(=O)(=O)CC3)CC[C@]3(C)[C@H](CC[C@@H]4[C@@]5(C)CC=C(C6=CC[C@@](CF)(C(=O)O)CC6)C(C)(C)[C@@H]5CC[C@]43C)[C@@H]12	human, plasma	oral, 50 to 320 mg daily, 14 days		trough concentration	186 to 980 ng/mL
C[C@@H](Oc1ccc(S(C)(=O)=O)cc1C(=O)N1C[C@@H]2C[C@]2(c2cc(C(F)(F)F)on2)C1)C(F)(F)F	human male, CSF	oral, 10 mg once daily, 312 h		trough concentration	9.7 nM
O=C(Nc1c(Cl)cncc1Cl)c1ccc(OC(F)F)c(OCC2CC2)c1	human, age 18 years or older, plasma	topical, 0.3 % cream, week 8, mean		trough plasma concentration	1.72 ng/mL
CO[C@H]1C[C@@H]2CC[C@@H](C)[C@@](O)(O2)C(=O)C(=O)N2CCCC[C@H]2C(=O)O[C@H]([C@H](C)C[C@@H]2CC[C@@H](OCCO)[C@H](OC)C2)CC(=O)[C@H](C)/C=C(\C)[C@@H](O)[C@@H](OC)C(=O)[C@H](C)C[C@H](C)/C=C/C=C/C=C/1C	human patients, plasma	oral, 10 mg once daily, cycle 2 day 1, predose, with: pasireotide		trough concentration	9.2 ng/mL
Cc1ccc([C@@H]2O[C@H](CO)[C@@H](O)[C@H](O)[C@H]2O)cc1Cc1ccc(-c2ccc(F)cc2)s1	human, plasma	oral, day 7	baseline: day 7 over day 16 predose	trough concentration ratio	0.93 to 1
N[C@@H](CC(=O)O)Cn1nnc(-c2ccc(Oc3ncc(Cl)cc3F)cc2)n1	human, blood	20 mg twice daily, 12 h		trough concentration at steady state	50 to 60 ng/mL
C#C[C@]1(O)CC[C@H]2[C@@H]3CCC4=CC(=O)CC[C@@H]4[C@H]3CC[C@@]21C	human female, serum	oral, 0.35 mg daily, 24 h, day 22, geometric mean, with: atazanavir/ritonavir		trough concentration	0.45 ng/mL
teicoplanin	human, CrCl below 40 mL/min, serum	intravenous, 400 mg q12h loading, 200 mg/day, day 4		trough concentration	17100 ± 5660 ng/mL
O=C(O)COC[C@H]1CC[C@H](COC(=O)N(c2ccccc2)c2ccc(Cl)cc2)CC1	human, plasma	oral, 70 µg twice daily		trough concentration at steady state	1.79 ng/mL

Some of these lines once more:
Molecule	test system	conditions	how to read	endpoint	result
Cc1ccc([C@@H]2O[C@H](CO)[C@@H](O)[C@H](O)[C@H]2O)cc1Cc1ccc(-c2ccc(F)cc2)s1	human, plasma	oral, day 7	baseline: day 7 over day 16 predose	trough concentration ratio	0.93 to 1
